# Assay results gathered from unrelated publications.
# Compare with care: the assays were run in different laboratories. ± marks the error that the study gave.
# pdhR full length assumed: pdhR full length assumed (Escherichia coli, UniProt P0ACL9)
# UniProt P0ACL9, sequence (whole entry, looked up): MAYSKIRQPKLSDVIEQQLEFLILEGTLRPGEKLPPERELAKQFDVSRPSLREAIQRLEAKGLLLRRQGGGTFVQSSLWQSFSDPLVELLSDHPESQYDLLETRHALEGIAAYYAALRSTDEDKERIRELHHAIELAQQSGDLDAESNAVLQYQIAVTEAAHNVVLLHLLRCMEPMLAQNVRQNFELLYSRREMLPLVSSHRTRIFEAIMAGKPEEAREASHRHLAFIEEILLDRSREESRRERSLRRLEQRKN
# SUA7 full length assumed: SUA7 full length assumed (Saccharomyces cerevisiae, UniProt P29055)
# UniProt P29055, sequence (whole entry, looked up): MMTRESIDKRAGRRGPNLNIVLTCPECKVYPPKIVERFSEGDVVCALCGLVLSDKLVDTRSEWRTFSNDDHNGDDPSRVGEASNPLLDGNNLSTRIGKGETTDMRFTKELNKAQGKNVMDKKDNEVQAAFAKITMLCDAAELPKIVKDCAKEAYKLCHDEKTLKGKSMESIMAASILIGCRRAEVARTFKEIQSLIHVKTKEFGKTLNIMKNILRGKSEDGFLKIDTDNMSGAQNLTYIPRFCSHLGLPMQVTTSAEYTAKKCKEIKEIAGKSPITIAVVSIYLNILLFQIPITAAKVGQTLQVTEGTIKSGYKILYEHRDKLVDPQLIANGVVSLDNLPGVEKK
# ulaR full length assumed: ulaR full length assumed (Escherichia coli, UniProt P0A9W0)
# UniProt P0A9W0, sequence (whole entry, looked up): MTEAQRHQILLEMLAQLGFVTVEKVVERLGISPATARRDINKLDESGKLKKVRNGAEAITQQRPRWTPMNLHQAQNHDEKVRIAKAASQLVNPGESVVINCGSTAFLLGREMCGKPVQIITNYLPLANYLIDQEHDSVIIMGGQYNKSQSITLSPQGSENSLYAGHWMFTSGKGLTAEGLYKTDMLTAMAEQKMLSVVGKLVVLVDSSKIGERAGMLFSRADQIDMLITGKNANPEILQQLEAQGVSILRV
# PHO4: PHO4 1-312 (Saccharomyces cerevisiae, UniProt P07270)
# UniProt P07270, sequence (whole entry, looked up): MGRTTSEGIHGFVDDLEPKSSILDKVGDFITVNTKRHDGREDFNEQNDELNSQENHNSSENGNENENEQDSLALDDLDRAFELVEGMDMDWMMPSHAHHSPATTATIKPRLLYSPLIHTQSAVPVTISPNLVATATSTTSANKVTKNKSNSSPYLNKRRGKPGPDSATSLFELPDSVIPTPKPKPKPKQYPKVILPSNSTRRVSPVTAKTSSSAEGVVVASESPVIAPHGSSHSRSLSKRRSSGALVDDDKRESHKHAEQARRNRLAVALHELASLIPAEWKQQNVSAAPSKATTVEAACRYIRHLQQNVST
# SART3: SART3 697-786 (Homo sapiens, UniProt Q15020)
# UniProt Q15020, sequence (whole entry, looked up): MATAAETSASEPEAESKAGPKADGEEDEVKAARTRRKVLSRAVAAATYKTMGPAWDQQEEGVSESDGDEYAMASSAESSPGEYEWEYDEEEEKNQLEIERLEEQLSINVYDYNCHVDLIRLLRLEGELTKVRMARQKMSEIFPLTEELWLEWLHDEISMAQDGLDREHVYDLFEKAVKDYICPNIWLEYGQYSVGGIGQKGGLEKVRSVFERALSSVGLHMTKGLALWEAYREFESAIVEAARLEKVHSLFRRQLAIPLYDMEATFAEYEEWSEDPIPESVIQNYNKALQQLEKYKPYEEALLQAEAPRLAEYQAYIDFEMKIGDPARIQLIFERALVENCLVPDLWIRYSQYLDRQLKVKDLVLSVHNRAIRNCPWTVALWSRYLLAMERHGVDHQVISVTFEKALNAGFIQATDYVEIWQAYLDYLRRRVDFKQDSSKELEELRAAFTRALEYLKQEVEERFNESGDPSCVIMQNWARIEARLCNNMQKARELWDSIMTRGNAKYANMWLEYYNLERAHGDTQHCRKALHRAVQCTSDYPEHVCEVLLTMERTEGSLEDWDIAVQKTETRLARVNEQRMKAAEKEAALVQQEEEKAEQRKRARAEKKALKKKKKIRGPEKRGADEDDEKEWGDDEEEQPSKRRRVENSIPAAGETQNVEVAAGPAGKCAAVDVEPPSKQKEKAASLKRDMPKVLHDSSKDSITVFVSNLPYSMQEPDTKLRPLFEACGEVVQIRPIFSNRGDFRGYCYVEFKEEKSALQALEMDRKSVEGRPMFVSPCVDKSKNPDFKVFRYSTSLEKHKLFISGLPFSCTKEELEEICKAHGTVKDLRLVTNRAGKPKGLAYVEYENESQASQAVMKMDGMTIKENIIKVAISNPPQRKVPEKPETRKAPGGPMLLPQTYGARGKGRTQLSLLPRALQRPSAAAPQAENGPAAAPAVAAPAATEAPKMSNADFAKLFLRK
# U2AF2: U2AF2 148-342 (Homo sapiens, UniProt P26368)
# UniProt P26368, sequence (whole entry, looked up): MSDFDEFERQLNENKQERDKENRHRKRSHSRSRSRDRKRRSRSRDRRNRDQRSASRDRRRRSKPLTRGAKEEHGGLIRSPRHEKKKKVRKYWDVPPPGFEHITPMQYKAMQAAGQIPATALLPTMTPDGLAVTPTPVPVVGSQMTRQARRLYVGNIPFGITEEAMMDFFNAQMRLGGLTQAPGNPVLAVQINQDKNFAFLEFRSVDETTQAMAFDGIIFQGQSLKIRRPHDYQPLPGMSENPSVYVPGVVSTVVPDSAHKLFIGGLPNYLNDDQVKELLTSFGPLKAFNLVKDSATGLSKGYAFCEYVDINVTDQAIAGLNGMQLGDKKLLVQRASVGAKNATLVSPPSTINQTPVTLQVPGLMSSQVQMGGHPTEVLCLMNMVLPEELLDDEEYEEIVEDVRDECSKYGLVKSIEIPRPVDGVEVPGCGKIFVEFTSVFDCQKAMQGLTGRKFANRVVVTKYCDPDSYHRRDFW
# PARP1: PARP1 1-1014 (Homo sapiens, UniProt P09874)
# UniProt P09874, sequence (whole entry, looked up): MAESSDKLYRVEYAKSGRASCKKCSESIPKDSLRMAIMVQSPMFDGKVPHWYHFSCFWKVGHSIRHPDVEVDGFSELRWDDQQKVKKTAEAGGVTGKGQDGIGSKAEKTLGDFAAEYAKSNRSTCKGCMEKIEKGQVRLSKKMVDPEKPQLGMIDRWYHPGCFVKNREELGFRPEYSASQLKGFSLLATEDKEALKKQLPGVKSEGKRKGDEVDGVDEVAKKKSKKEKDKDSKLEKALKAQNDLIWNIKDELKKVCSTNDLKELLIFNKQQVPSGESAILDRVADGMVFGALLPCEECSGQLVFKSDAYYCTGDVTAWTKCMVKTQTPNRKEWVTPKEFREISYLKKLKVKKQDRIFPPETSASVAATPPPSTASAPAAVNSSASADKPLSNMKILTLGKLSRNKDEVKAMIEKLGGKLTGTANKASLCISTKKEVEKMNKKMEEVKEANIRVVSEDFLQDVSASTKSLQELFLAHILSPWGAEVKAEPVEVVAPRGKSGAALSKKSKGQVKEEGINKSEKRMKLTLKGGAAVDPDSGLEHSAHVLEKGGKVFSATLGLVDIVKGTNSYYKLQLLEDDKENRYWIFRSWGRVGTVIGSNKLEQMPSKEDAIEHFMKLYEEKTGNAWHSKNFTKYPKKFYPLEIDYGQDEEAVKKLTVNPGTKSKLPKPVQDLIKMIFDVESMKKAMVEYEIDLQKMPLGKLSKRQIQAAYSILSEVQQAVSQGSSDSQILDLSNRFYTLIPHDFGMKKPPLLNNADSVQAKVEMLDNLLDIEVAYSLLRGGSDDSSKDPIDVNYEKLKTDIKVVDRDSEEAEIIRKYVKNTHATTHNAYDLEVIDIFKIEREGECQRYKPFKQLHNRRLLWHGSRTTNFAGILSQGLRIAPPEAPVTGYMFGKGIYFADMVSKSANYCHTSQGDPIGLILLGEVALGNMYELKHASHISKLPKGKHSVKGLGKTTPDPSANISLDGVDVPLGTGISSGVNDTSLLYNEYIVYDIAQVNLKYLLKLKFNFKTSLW
# T1: TOA1/TOA2 1-286; 1-122 (Saccharomyces cerevisiae); chain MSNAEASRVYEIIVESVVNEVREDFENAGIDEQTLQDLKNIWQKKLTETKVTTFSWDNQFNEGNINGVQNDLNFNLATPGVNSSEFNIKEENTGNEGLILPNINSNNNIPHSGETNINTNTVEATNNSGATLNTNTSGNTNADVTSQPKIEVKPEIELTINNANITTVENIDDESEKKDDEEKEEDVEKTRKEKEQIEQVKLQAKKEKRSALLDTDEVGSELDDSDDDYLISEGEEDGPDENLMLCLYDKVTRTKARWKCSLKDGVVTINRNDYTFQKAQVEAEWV; chain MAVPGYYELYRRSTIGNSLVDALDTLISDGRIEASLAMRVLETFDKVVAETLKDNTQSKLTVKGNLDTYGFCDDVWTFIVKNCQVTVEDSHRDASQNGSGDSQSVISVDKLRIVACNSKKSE
# B1: human SMC1A; sequence looked up; chain MGFLKLIEIENFKSYKGRQIIGPFQRFTAIIGPNGSGKSNLMDAISFVLGEKTSNLRVKTLRDLIHGAPVGKPAANRAFVSMVYSEEGAEDRTFARVIVGGSSEYKINNKVVQLHEYSEELEKLGILIKARNFLVFQGAVESIAMKNPKERTALFEEISRSGELAQEYDKRKKEMVKAEEDTQFNYHRKKNIAAERKEAKQEKEEADRYQRLKDEVVRAQVQLQLFKLYHNEVEIEKLNKELASKNKEIEKDKKRMDKVEDELKEKKKELGKMMREQQQIEKEIKEKDSELNQKRPQYIKAKENTSHKIKKLEAAKKSLQNAQKHYKKRKGDMDELEKEMLSVEKARQEFEERMEEESQSQGRDLTLEENQVKKYHRLKEEASKRAATLAQELEKFNRDQKADQDRLDLEERKKVETEAKIKQKLREIEENQKRIEKLEEYITTSKQSLEEQKKLEGELTEEVEMAKRRIDEINKELNQVMEQLGDARIDRQESSRQQRKAEIMESIKRLYPGSVYGRLIDLCQPTQKKYQIAVTKVLGKNMDAIIVDSEKTGRDCIQYIKEQRGEPETFLPLDYLEVKPTDEKLRELKGAKLVIDVIRYEPPHIKKALQYACGNALVCDNVEDARRIAFGGHQRHKTVALDGTLFQKSGVISGGASDLKAKARRWDEKAVDKLKEKKERLTEELKEQMKAKRKEAELRQVQSQAHGLQMRLKYSQSDLEQTKTRHLALNLQEKSKLESELANFGPRINDIKRIIQSREREMKDLKEKMNQVEDEVFEEFCREIGVRNIREFEEEKVKRQNEIAKKRLEFENQKTRLGIQLDFEKNQLKEDQDKVHMWEQTVKKDENEIEKLKKEEQRHMKIIDETMAQLQDLKNQHLAKKSEVNDKNHEMEEIRKKLGGANKEMTHLQKEVTAIETKLEQKRSDRHNLLQACKMQDIKLPLSKGTMDDISQEEGSSQGEDSVSGSQRISSIYAREALIEIDYGDLCEDLKDAQAEEEIKQEMNTLQQKLNEQQSVLQRIAAPNMKAMEKLESVRDKFQETSDEFEAARKRAKKAKQAFEQIKKERFDRFNACFESVATNIDEIYKALSRNSSAQAFLGPENPEEPYLDGINYNCVAPGKRFRPMDNLSGGEKTVAALALLFAIHSYKPAPFFVLDEIDAALDNTNIGKVANYIKEQSTCNFQAIVISLKEEFYTKAESLIGVYPEQGDCVISKVLTFDLTKYPDANPNPNEQ
# B2: human adenosylhomocysteinase; sequence looked up; chain SDKLPYKVADIGLAAWGRKALDIAENEMPGLMRMRERYSASKPLKGARIAGCLHMTVETAVLIETLVTLGAEVQWSSCNIFSTQDHAAAAIAKAGIPVYAWKGETDEEYLWCIEQTLYFKDGPLNMILDDGGDLTNLIHTKYPQLLPGIRGISEETTTGVHNLYKMMANGILKVPAINVNDSVTKSKFDNLYGCRESLIDGIKRATDVMIAGKVAVVAGYGDVGKGCAQALRGFGARVIITEIDPINALQAAMEGYEVTTMDEACQEGNIFVTTTGCIDIILGRHFEQMKDDAIVCNIGHFDVEIDVKWLNENAVEKVNIKPQVDRYRLKNGRRIILLAEGRLVNLGCAMGHPSFVMSNSFTNQVMAQIELWTHPDKYPVGVHFLPKKLDEAVAEAHLGKLNVKLTKLTEKQAQYLGMSCDGPFKPDHYRY
# UniProt P17106, sequence (whole entry, looked up): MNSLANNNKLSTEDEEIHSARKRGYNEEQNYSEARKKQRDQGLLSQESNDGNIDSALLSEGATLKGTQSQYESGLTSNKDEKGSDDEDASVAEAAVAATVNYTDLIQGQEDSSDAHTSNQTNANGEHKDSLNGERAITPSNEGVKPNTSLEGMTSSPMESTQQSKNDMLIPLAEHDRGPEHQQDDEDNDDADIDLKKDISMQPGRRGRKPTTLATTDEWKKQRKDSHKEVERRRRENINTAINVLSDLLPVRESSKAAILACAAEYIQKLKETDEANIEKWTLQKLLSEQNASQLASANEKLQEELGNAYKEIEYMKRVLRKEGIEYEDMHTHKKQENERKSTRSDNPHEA
# UniProt P13393, sequence (whole entry, looked up): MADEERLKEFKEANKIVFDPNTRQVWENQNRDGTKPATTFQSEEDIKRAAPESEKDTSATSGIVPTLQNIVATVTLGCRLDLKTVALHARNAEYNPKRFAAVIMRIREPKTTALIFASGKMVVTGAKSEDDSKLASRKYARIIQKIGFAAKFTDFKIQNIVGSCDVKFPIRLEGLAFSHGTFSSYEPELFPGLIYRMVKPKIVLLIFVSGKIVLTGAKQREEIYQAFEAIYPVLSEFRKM
# UniProt Q00535, sequence (whole entry, looked up): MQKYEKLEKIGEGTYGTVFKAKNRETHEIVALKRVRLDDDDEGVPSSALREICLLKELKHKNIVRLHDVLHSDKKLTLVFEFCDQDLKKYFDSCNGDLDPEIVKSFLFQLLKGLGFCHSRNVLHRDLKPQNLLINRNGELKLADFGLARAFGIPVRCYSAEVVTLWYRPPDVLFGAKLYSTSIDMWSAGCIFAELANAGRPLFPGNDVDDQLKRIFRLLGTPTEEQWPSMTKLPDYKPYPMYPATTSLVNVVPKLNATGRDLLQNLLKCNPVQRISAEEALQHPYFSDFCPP
# UniProt Q47005, sequence (whole entry, looked up): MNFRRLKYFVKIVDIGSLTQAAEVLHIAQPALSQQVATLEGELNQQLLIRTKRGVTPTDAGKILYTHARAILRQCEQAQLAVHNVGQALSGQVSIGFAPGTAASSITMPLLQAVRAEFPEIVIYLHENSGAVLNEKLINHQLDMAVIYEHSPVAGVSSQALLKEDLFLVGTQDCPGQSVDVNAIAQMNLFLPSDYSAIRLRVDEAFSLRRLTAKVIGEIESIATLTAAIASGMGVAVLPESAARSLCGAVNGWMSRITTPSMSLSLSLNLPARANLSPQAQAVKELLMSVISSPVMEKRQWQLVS
Substance,tested on,test,test system,conditions,how to read,endpoint,value
ACAAAAGGGGAGTGCTGAAGGAGTCTGGGCGGGCAATTGGTATAACCAATGTGAAATAAAA (dsDNA),pdhR full length assumed,BLI,"double-stranded DNA, one strand shown",,,Kd,3.95 nM
CGCTGATCACGTGATGACGTGATTACGTGCAGACGTGCATACGTGCCCACGTGCCCTCCGGCGGTATGAC (dsDNA),"CBF1 full length assumed (Saccharomyces cerevisiae, UniProt P17106)",MITOMI,"double-stranded DNA, one strand shown",not purified,,Kd,35 ± 3 nM
CATTCGCCCGCTATAAGTAAACCCTATGGAACTCATCATAAATGAGACTTTTACCTTATGA (dsDNA),"nac full length assumed (Escherichia coli, UniProt Q47005)",BLI,"double-stranded DNA, one strand shown",,,Kd,3.02 nM
CAATACACTGTTATCAGACACACGTGACGAGCTACTCGTTCGGTTATCCGGCGGTATGAC (dsDNA),"CBF1 1-351 (Saccharomyces cerevisiae, UniProt P17106)",MITOMI,"double-stranded DNA, one strand shown",not purified,,Kd,30 ± 2 nM
TCCTGAAGGGGCACCCTAGCTTGGTCCTATCGTCGTCAAGTCAATCGGTCC (dsDNA; 5'-amino-C6 primer),SUA7 full length assumed,array,"double-stranded DNA, one strand shown",TFIIB alone,,Kd,2.45 ± 0.77 nM
AGATCTCCATCCTTGGGATATGGCTACCAGAAAGTAAAGGGACGATACAAGTCAAGTGAGA (dsDNA),ulaR full length assumed,BLI,"double-stranded DNA, one strand shown",,,Kd,12000 nM
AUCAUGUUGCCAUUU (ssRNA),"fbf-1 162-614 (Caenorhabditis elegans, UniProt Q9N5M6)",EMSA,RNA,,,Kd,615 nM
CAATACACTGTTATCAGACACACGTGTGGAGCTACTCGTTCGGTTATCCGGCGGTATGAC (dsDNA),PHO4,MITOMI,"double-stranded DNA, one strand shown",not purified,,Kd,166 ± 4 nM
GAUACAGAGAAG (ssRNA),SART3,ITC,RNA,,,Kd,2600 ± 400 nM
DNA TGAGGATGTATATATCTGACGCGCCGGTGGAGC / RNA GCUCCACCGGCGCGUACGAUAUAUACAUCCUCA (DNA:RNA),"TDG 1-410 (Homo sapiens, UniProt Q13569)",EMSA,DNA-RNA hybrid,,,Kd,67 nM
RNA 1 GCGGUGUAUAGCCUAAUCUUUACCGC / RNA 2 GCGGUAAAGAUUAGGCUAUACACCGC (dsRNA),"MECP2 1-486 (Homo sapiens, UniProt P51608)",fluorescence polarization,double-stranded RNA,untagged,,Kd,53 nM
CTGAAGGGGGGGCTATAAAAGAAGGTGGGGGCTCCTCAAGTCAATCGGTCC (dsDNA; 5'-amino-C6 primer),"SPT15 full length assumed (Saccharomyces cerevisiae, UniProt P13393)",array,"double-stranded DNA, one strand shown",TBP alone,,Kd,77.5 ± 47.5 nM
CATTCGCAACCTATAAGTAAATCCAATGGAACTCATCATAAATGAGACTTTTACCTTATGA (dsDNA),pdhR full length assumed,BLI,"double-stranded DNA, one strand shown",,,Kd,208 nM
KNAFWDRCLSVINLMSSKMLQINA,"Cyclin-dependent kinase 5, with p25 (CDK5, Homo sapiens, UniProt Q00535)","phosphotransferase activity, radiometric",peptide,"concentration not given, 10% DMSO, with: histone substrate",baseline: p5-WT peptide,activity change,1%
ATGCATTTCAATGCACCACGATAGTGCAACAAACCTGGCGTGCACCATGATGATCATTCCA (dsDNA),"glnG full length assumed (Escherichia coli, UniProt P0AFB8)",BLI,"double-stranded DNA, one strand shown",,,Kd,5.52 nM
durvalumab,,,"human, plasma","intravenous, 1500 mg, cycle 4 day 1, with: adavosertib 200 mg once daily",,Cmax,512 µg/mL
CCATCGCTACC (dsDNA),"SUB1 full length assumed (Homo sapiens, UniProt P53999)",fluorescence anisotropy,"double-stranded DNA, one strand shown",,,Kd,15 ± 3 nM
GAGGAGGAGGAGGAG (ssRNA),"ECD 1-644 (Homo sapiens, UniProt O95905)",FP,RNA,,,Kd,7100 ± 1900 nM
CAATACACTGTTATCAGATACACGTGTCGAGCTACTCGTTCGGTTATCCGGCGGTATGAC (dsDNA),PHO4,MITOMI,"double-stranded DNA, one strand shown",not purified,,Kd,165 ± 4 nM
GTAAAGTAGGAACGGTATTAATAGAAATGATACTAAAGTACGAAATAATAAACTGGAATTT (dsDNA),ulaR full length assumed,BLI,"double-stranded DNA, one strand shown",,,Kd,3050 nM
AGUUUUUCU (ssRNA),U2AF2,sequencing of bound RNA,RNA,motif only,,Kd,480 nM
"GGCAAGGAGUCUGCACUUCGGUGCUCAGCUUUGCC (RNA; hairpin, internal loop, tetraloop)","LARP6 73-183 G74C/K166A (Homo sapiens, UniProt Q9BRS8)",MST,folded RNA,,,Kd,204 ± 20.6 nM
AGCGTCACAGACATGAAATTGGTCAGACCAATTGACCTCGGCAAGTGGCTTAAGACAGGAA (dsDNA),pdhR full length assumed,BLI,"double-stranded DNA, one strand shown",,,Kd,1.61 nM
AUUCUUCUC (ssRNA),U2AF2,sequencing of bound RNA,RNA,motif only,,Kd,3460 nM
CAATACACTGTTATCAGAGACACGTGTCGAGCTACTCGTTCGGTTATCCGGCGGTATGAC (dsDNA),PHO4,MITOMI,"double-stranded DNA, one strand shown",not purified,,Kd,92 ± 2 nM
CGCAAAAACAACUAAAUCAAAACCAA (ssRNA; unstructured),PARP1,fluorescence polarization,RNA,Hill coefficient 1.07,,Kd,193 ± 11 nM
"GGCAGAGGCATTTTCGAGC (ssDNA; 5' C6 amino digoxigenin, internal Cy5)",anti-digoxigenin antibody (sheep),bead-based flow cytometry,,,,Kd,5.6 nM
B1 (human SMC1A),CYB5R4 knockout human cells,"PP4 interaction, 3xFLAG-PP4C IP-MS",,concentration not given,baseline: CYB5R4 KO over parental,log2 fold change,-1.32
GAUACA (ssRNA),SART3,ITC,RNA,,,Kd,4700 ± 1100 nM
B2 (human adenosylhomocysteinase),CYB5R4 knockout human cells,"PP4 interaction, 3xFLAG-PP4C IP-MS",,concentration not given,baseline: CYB5R4 KO over parental,log2 fold change,-0.41
CCTGCGGTATTGACACTTGAGGGGCGCGACTACTGACAGATGAGGGGCGCGATCCTTGACACTTGAGGGGCAGAGTGATGACAGATGAGGGGCGCACCTATTGACATTTGAGGGGCTGTCCACAGGCAG (dsDNA),"trfA 98-382 G254D/S267L (Escherichia coli, UniProt P07676)",SPR,"double-stranded DNA, one strand shown",,,Kd,2.49 nM
RNA 1 CGGCAGGACGUACAUCCCUCCCGGCUCCCCUCCCGCUGGCCUGCCG / RNA 2 CGGCAGGCCAGCGGGAGGGGAGCCGGGAGGGAUGUACGUCCUGCCG (dsRNA),PARP1,fluorescence polarization,double-stranded RNA,Hill coefficient 1.46,,Kd,253 ± 19 nM
AGUUUAGUU (ssRNA),U2AF2,sequencing of bound RNA,RNA,motif only,,Kd,3740 nM
GGUGCCUCCCAGUGGUCUUUGUAGACUGCCUGAUGGAGUCACCC (RNA; hairpin with internal loops/bulges),"GATA1 200-311 (Homo sapiens, UniProt P15976)",fluorescence anisotropy,folded RNA,,,Kd,510 ± 70 nM
GGAAGTGACGTACGTCGTGCACACGTGGTCCGGCGTCAAGTCAATCGGTCC (dsDNA; 5'-amino-C6 primer),SUA7 full length assumed,array,"double-stranded DNA, one strand shown",TFIIB alone,,Kd,1.65 ± 0.59 nM
CAATACACTGTTATCAGACACACGTGTCAAGCTACTCGTTCGGTTATCCGGCGGTATGAC (dsDNA),PHO4,MITOMI,"double-stranded DNA, one strand shown",not purified,,Kd,117 ± 3 nM
GCAUUUGAG (ssRNA),U2AF2,sequencing of bound RNA,RNA,motif only,,Kd,4850 nM
GTTCCTGAAGGGGGGGCTATAAACGGGGGTGGGGGTCAAGTCAATCGGTCC (dsDNA; 5'-amino-C6 primer),"T1, TOA1/TOA2 1-286; 1-122 (Saccharomyces cerevisiae)",array,"double-stranded DNA, one strand shown",TFIIA alone,,Kd,14.3 ± 10.4 nM
CGCGCGACCACGCTACCACGGCACCACGGGACCACGGTACCACGTCACCACGTGACTCCGGCGGTATGAC (dsDNA),"PHO4 full length assumed (Saccharomyces cerevisiae, UniProt P07270)",MITOMI,"double-stranded DNA, one strand shown",not purified,,Kd,45 ± 7 nM

# Excerpt of the above:
Substance,tested on,test,test system,conditions,how to read,endpoint,value
B2 (human adenosylhomocysteinase),CYB5R4 knockout human cells,"PP4 interaction, 3xFLAG-PP4C IP-MS",,concentration not given,baseline: CYB5R4 KO over parental,log2 fold change,-0.41
CTGAAGGGGGGGCTATAAAAGAAGGTGGGGGCTCCTCAAGTCAATCGGTCC (dsDNA; 5'-amino-C6 primer),"SPT15 full length assumed (Saccharomyces cerevisiae, UniProt P13393)",array,"double-stranded DNA, one strand shown",TBP alone,,Kd,77.5 ± 47.5 nM
AGCGTCACAGACATGAAATTGGTCAGACCAATTGACCTCGGCAAGTGGCTTAAGACAGGAA (dsDNA),pdhR full length assumed,BLI,"double-stranded DNA, one strand shown",,,Kd,1.61 nM
